Measurements pooled from the literature.
Lines come from different studies, so protocols differ. ± marks the error that the study gave.

| SMILES | tested on | test | test system | conditions | how to read | measurement | result |
| --- | --- | --- | --- | --- | --- | --- | --- |
| CN(O)C(=O)CCC(=O)NCCCN(CCCCN(CCCNC(=O)CCC(=O)N(C)O)C(=O)CCC(=O)N(C)O)C(=O)CCC(=O)N(C)O.[89Zr] |  | radio-TLC | aqueous buffer | 3 d, pH 7.2, 37 °C, 89Zr-labelled complex, together with: FeCl3 100-fold excess |  | intact complex | 68.1 ± 1% |
| Cc1c(Cc2cc(F)cc(OC(C)(C)C(=O)O)c2)c2ccc(C(=O)N[C@@H](C)c3cccc(C(C)(C)C)c3)cc2n1CC(C)C |  |  | mouse liver microsomes | 1 µM, together with: microsomes 1 mg/mL |  | half-life | > 60 min |
| CC1Cc2ccccc2N1C(=O)CN1CCN(Cc2ccccc2)CC1 (centres unmarked) |  |  | female NMRI mice, brain | intraperitoneal, 10 mg/kg free base, 15 min |  | brain concentration | 2020 ng/mL |
| CC(C)(O)c1ncc([S@](N)(=O)=NC(=O)Nc2c3c(cc4c2CCC4)CCC3)s1 |  | item: Gastrointestinal disorders | healthy human volunteers | oral, dose not given, 14 days, multiple dose, all active arms |  | subjects with adverse events | 38% |
| CCOC(=O)C1CCCN(Cc2ccc(-c3ccccc3)cc2)C1 (centres unmarked) | Trypanosoma cruzi | reporter mRNA translation, inhibitor, item: capped polyadenylated Renilla luciferase mRNA | cell-free extract | concentration not given | baseline: control RNA | relative translation | 117% |
| CN1CCC[C@]1(C)/C=C/S(=O)(=O)NC(=O)Nc1c2c(cc3c1CCC3O)CCC2 (some centres unmarked) |  |  | human, plasma | oral, 100 mg twice daily of parent drug, day 14, metabolite of dosed drug |  | Cmax at first steady-state dose | 94900 ng/mL |
| COc1ccnc(C(=O)N[C@H]2COC(=O)[C@H](Cc3ccccc3)[C@@H](OC(=O)C(C)C)[C@H](C)OC2=O)c1O |  | soil adsorption | tested soils | geometric mean |  | KFoc | 4520 mL/g |
| CSCC[C@H](N)C(=O)N[C@@H](CO)C(=O)N[C@H](C(=O)N[C@@H](C)C(=O)NCC(=O)N[C@@H](CC(C)C)C(=O)N[C@@H](CCCCN)C(=O)N[C@@H](CCCCN)C(=O)N[C@@H](CCC(N)=O)C(=O)N[C@@H](Cc1c[nH]c2ccccc12)C(=O)N[C@@H](Cc1c[nH]cn1)C(=O)N[C@@H](CCCCN)C(=O)N[C@@H](C)C(=O)N[C@H](C(=O)N[C@@H](CCC(N)=O)C(=O)N[C@@H](CCCCN)C(=O)N[C@H](C(=O)N[C@@H](CO)C(=O)N[C@@H](CCC(=O)O)C(=O)N[C@@H](CCCCN)C(=O)N[C@H](C(=O)NCC(=O)NCC(=O)N[C@@H](C)C(N)=O)C(C)C)C(C)C)[C@@H](C)O)C(C)C |  | circular dichroism titration | 25% DOPS/75% DOPC liposomes | 50 µM, pH 7.4, 20 °C |  | ΔG of binding | -6.5 kcal/mol |
| CC(C)=CCCC(C)CN(C)CCc1ccccn1 (centres unmarked) | Trypanosoma cruzi | reporter mRNA translation, inhibitor, item: capped polyadenylated Renilla luciferase mRNA | cell-free extract | concentration not given | baseline: control RNA | relative translation | 104% |
| CC(C)[C@H](NC(=O)[C@H](Cc1c[nH]c2ccccc12)NC(=O)[C@H](CCCNC(=N)N)NC(=O)[C@H](CCCNC(=N)N)NC(=O)[C@@H](NC(=O)[C@@H](NC(=O)[C@H](CCCNC(=N)N)NC(=O)[C@@H](NC(=O)[C@@H](NC(=O)[C@H](CCCNC(=N)N)NC(=O)[C@H](CCCNC(=N)N)NC(=O)[C@@H](NC(=O)[C@H](Cc1c[nH]c2ccccc12)NC(=O)[C@H](CCCNC(=N)N)NC(=O)[C@H](CCCNC(=N)N)NC(=O)[C@@H](NC(=O)[C@H](CCCNC(=N)N)NC(=O)[C@H](CCCNC(=N)N)NC(=O)[C@@H](NC(=O)[C@H](Cc1c[nH]c2ccccc12)NC(=O)[C@H](CCCNC(=N)N)NC(=O)[C@@H](N)CCCNC(=N)N)C(C)C)C(C)C)C(C)C)C(C)C)C(C)C)C(C)C)C(C)C)C(=O)N[C@@H](CCCNC(=N)N)C(=O)N[C@@H](CCCNC(=N)N)C(=O)O |  |  | CD1 mouse, urine | intravenous, 15 mg/kg, 16 h, [14C]-labelled compound |  | creatinine excretion | 15.4 µg/day/g body weight |
| O=C(O)CN1CCN(Cc2cccc(C(=O)O)n2)CCN(CP(=O)(O)O)CC1 |  | potentiometric titration |  | first phosphonate deprotonation |  | log Ka | < 2 |
| O=C([O-])CN1CCN(CC(=O)[O-])CCN(CC(O)CN(CC(O)CN2CCN(CC(=O)[O-])CCN(CC(=O)[O-])CCN(CC(=O)[O-])CC2)C[C@H](O)[C@@H](O)[C@H](O)[C@H](O)CO)CCN(CC(=O)[O-])CC1.[Gd+3] (some centres unmarked) |  | pH-potentiometry, item: Gd(HL)M, M = Ca2+ |  | 25 °C, 0.15 M NaCl |  | log K | 6.15 |
| COc1ccc(Nc2nc(Nc3ccc(OCCOCCOCC[18F])cc3)ncc2Br)cc1 |  |  | ICR mice, S180 tumour | intravenous, 370 kBq, 15 min | baseline: tumour over muscle | uptake ratio | 1.1 |
| N=C(N)NCCC[C@@H]1NC(=O)[C@H](CO)NC(=O)[C@@H](NC(=O)[C@H](CO)NC(=O)[C@H](CO)NC(=O)[C@H](Cc2c[nH]c3ccccc23)NC(=O)CNC(=O)[C@H](CO)NC(=O)[C@@H](N)Cc2c[nH]c3ccccc23)CSSC[C@@H](C(=O)NCC(=O)O)NC(=O)[C@H](CO)NC1=O |  |  | patients, plasma | intravenous, 10 mg/kg, thrice weekly, mean |  | half-life | 17.2 min |
| CN1CCC[C@@H]1C(=O)N[C@@H](Cc1ccc(-c2ccccc2)cc1)B(O)O |  |  | NODscidIL2Rγnull mice, whole blood | oral, 50 mg/kg, 6 h, mean |  | blood concentration | 240 ng/mL |
| Cc1noc(C)c1Cn1cc(N2C(=O)CN(Cc3cccc(O[C@@H]4O[C@H](C(=O)O)[C@@H](O)[C@H](O)[C@H]4O)c3)C2=O)cn1 |  |  | Sprague-Dawley rat, male | oral, 100 mg/kg of parent drug, 24 h |  | plasma concentration | 36 ng/mL |
| N#C/N=C(\N)Nc1cccc(C(=O)NCC(=O)NC[C@H](NC(=O)c2c(Cl)cc(-c3ccccc3)cc2Cl)C(=O)O)c1 |  |  | Caco-2 |  |  | efflux ratio | 62 |

For quick reference, copied from above:
| SMILES | tested on | test | test system | conditions | how to read | measurement | result |
| --- | --- | --- | --- | --- | --- | --- | --- |
| CC(C)(O)c1ncc([S@](N)(=O)=NC(=O)Nc2c3c(cc4c2CCC4)CCC3)s1 |  | item: Gastrointestinal disorders | healthy human volunteers | oral, dose not given, 14 days, multiple dose, all active arms |  | subjects with adverse events | 38% |
| COc1ccnc(C(=O)N[C@H]2COC(=O)[C@H](Cc3ccccc3)[C@@H](OC(=O)C(C)C)[C@H](C)OC2=O)c1O |  | soil adsorption | tested soils | geometric mean |  | KFoc | 4520 mL/g |
